Literature values, collected from citations in different studies.
Numbers after ± are the reported error.

`CC1COc2ccccc2N1C(=O)C(Cl)Cl` (centres unmarked) gave an enantiomeric fraction of 0.68 (cytochrome P450; female rat liver microsomes; 30 min, with: NADPH).
The EC50 of `Oc1ccc(-c2[o+]c3cc(O)cc(O)c3cc2O)cc1` is reported as 50 to 100 µM (SARS-CoV-2; viral replication; literature value).
For `Fc1ccccc1Cc1nc(-c2nc(C(F)(F)F)n[nH]2)cn2ccnc12`, “plasma protein binding” read 98.5% (equilibrium dialysis; rat plasma; 1 and 10 µM).
The Km of `O=[N+]([O-])c1ccc(O[C@H]2O[C@H](CO)[C@@H](O)[C@H](O)[C@@H]2O)cc1` is reported as 190 µM (Beta-mannosidase (Bacteroides thetaiotaomicron, UniProt Q8AAK6); substrate).
The EC50 of `COc1c(O)cc2oc(-c3ccccc3)cc(=O)c2c1O` is reported as 20 to 40 µM (SARS-CoV-2; viral replication; literature value).
With `CC(C)(C)[C@H](NC(=O)C(F)(F)F)C(=O)N1C[C@H]2[C@@H]([C@H]1C(=O)N[C@H](C#N)C[C@@H]1CCNC1=O)C2(C)C` the CC50 was over 100 µM (Vero; cytotoxicity).
With `Nc1ncnc2c1ncn2[C@@H]1O[C@H](COP(=O)(O)OP(=O)(O)OP(=O)(O)O)[C@@H](O)[C@H]1O` the Km was 117 ± 11 µM (YcaO (Methanocaldococcus jannaschii); substrate, PNP-coupled; pH 7.5, 25 °C, with: 500 µM peptide substrate).
The total Cmax of `COC(=O)Nc1c(N)nc(-c2nn(Cc3ccccc3F)c3ncc(F)cc23)nc1N` is reported as about 1000 nM (human patients with HFrEF; oral, 10 mg once daily, multiple doses).
